Values quoted from earlier work, collected from citations in different studies.
Lines come from different studies, so protocols differ. ± gives the spread as reported.
UniProt O35627, sequence (whole entry, unmodified, looked up): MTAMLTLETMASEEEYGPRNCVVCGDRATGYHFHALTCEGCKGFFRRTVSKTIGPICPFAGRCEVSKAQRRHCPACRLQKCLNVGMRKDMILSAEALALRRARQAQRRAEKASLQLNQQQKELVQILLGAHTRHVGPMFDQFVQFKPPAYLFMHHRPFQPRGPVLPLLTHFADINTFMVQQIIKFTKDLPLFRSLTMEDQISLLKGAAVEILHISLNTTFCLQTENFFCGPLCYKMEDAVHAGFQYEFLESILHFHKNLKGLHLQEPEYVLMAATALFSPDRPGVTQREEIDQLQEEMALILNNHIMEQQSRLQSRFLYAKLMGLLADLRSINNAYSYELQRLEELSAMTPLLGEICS

For `CO[C@@H]1[C@@H]2OP(=O)(O)OC[C@H]2O[C@H]1n1c(Sc2ccc(Cl)cc2)nc2c(N)ncnc21`, “Km or Ki” read 895000 nM (PDE4D; cyclic nucleotide hydrolysis, substrate or inhibitor, isothermal titration calorimetry).
`CC1(C)CC[C@]2(C(=O)O)CC[C@]3(C)C(=CC[C@@H]4[C@@]5(C)CC[C@H](O)C(C)(C)[C@@H]5CC[C@]43C)[C@@H]2C1` has an IC50 of 1400 nM (neutrophils; superoxide production; together with: fMLF).
`VVIA` has a viability of 89 ± 5% (differentiated PC-12; Aβ42-induced toxicity, inhibitor, MTT; peptide; 10-fold excess over Aβ42, 15 h, together with: Aβ42 5 µM).
The ΔH of `CC[C@H](C)[C@H](NC(=O)[C@H](CCCCN)NC(=O)[C@H](Cc1c[nH]cn1)NC(=O)[C@@H](N)CCCNC(=N)N)C(=O)N[C@@H](CC(C)C)C(=O)N[C@@H](Cc1c[nH]cn1)C(=O)N[C@@H](CCCNC(=N)N)C(=O)N[C@@H](CC(C)C)C(=O)N[C@@H](CC(C)C)C(=O)N[C@@H](CCC(N)=O)C(=O)N[C@@H](CCC(=O)O)C(=O)NCC(=O)N[C@@H](CO)C(=O)O` is reported as -10 ± 0.4 kcal/mol (Nuclear receptor subfamily 1 group I member 3, with RXR (Mus musculus, UniProt O35627); binding, isothermal titration calorimetry; pH 7.2, 25°C).
With `Cc1ccccc1-c1cc(N2CCN(C)CC2)ncc1N(C)C(=O)C(C)(C)c1cc(C(F)(F)F)cc(C(F)(F)F)c1` the Vz/F was 2340 L (healthy volunteers, plasma; oral, dose not given, netupitant-palonosetron alone, ketoconazole study).
For `Thrombospondin-1`, the effective concentration was < 20 nM (endothelial cells; endothelial cell proliferation, inhibitor).
With `CCCCCCCCCCCCCC(=S)NCCCCC(NC(=O)OCc1ccccc1)C(=O)Nc1ccccc1` (centres unmarked) the GI50 was 15000 ± 5000 nM (HCT-116 empty vector; anchorage-independent growth).
`CSc1ccc(/C=C2/C(C)=C(CC(=O)O)c3cc(F)ccc32)cc1` gave an Abeta42 secretion of ~45% (CHO expressing human APP Swedish; 40 µM; relative to: untreated).
`O=C1c2cccc3c2[C@H](CCC3)CN1[C@@H]1CN2CCC1CC2` gave a Vz/F of 679 L (patients, plasma; oral, dose not given, netupitant-palonosetron combination, together with: etoposide 35 to 100 mg/m^2 IV).
For `Nc1nc2c(nc(Sc3ccc(Cl)cc3)n2C2O[C@@H]3COP(=O)(O)O[C@H]3[C@H]2O)c(=O)[nH]1` (stereo in doubt), “Km or Ki” read 27600 nM (PDE5; cyclic nucleotide hydrolysis, substrate or inhibitor, isothermal titration calorimetry).
With `CC(=O)O[C@H]1Cc2ccccc2N(C(N)=O)c2ccccc21` the ED50 was 23 mg/kg (protection against seizures; male NMRI mouse; MES-induced seizures).
`O=c1c(O)c(-c2ccc(O)c(O)c2)oc2cc(O)cc(O)c12` gave a growth-inhibiting concentration of > 2.5 µM (MCF7; cell growth).
`C[C@]12CC[C@@H]3c4ccc(O)cc4CC[C@H]3[C@@H]1CC[C@@H]2OC(=O)c1ccccc1` has an EC50 of 8290 nM (HT-22; cell protection; together with: glutamate 10 mM).
For `GGVVIA`, the viability was 73 ± 2% (differentiated PC-12; Aβ42-induced toxicity, inhibitor, MTT; peptide; 10-fold excess over Aβ42, 15 h, together with: Aβ42 5 µM).
`C[C@]12CCC[C@@H]1[C@H]1CCc3cc(O)ccc3[C@@H]1CC2` (single isomer, unassigned) gave an EC50 of 1170 nM (HT-22; cell protection; together with: glutamate 20 mM).
For `NC(=S)NN=Cc1ncccc1N`, the GI50 was 1600 nM (tumour cell line panel; cell growth; 48 h).
`FGF-2` gave a doubling time of 1 to 2 days (Schwann cells; together with: 5 to 10 µM forskolin).
With `C[C@]12CC[C@@H]3c4ccc(O)cc4CC[C@H]3[C@@H]1CC[C@@H]2O` the EC50 was 2900 nM (HT-22; cell protection; together with: iodoacetic acid 20 µM).
For `CC(=O)c1cccc(N[C@H]2[C@H](N)[C@@](NC(=O)N(C)C)([C@H](C)O)[C@@](C)(O)[C@@]2(O)COC(=O)c2c(C)cccc2O)c1`, the GI50 was < 100 nM (MOLT-4).
With `Cc1c(O)c(C23CC4CC(CC(C4)C2)C3)cc2c1CC[C@@H]1[C@@H]2CC[C@]2(C)C(=O)CC[C@@H]12` the EC50 was 37 nM (HT-22; cell protection; together with: glutamate 20 mM).
`PACAP-27` — result for phosphatidylinositol turnover: “increased” (NCI-H838; NG).
`C[C@]12CC[C@@H]3c4cc(C56CC7CC(CC(C7)C5)C6)c(O)cc4CC[C@H]3[C@@H]1CC[C@@H]2O` has an EC50 of 23 nM (HT-22; cell protection; together with: glutamate 10 mM).
With `C[N+](C)(C)CC(=O)O` the Km was ~40 mM (Ehrlich ascites cells; Na+-dependent system A uptake).

Excerpt of the above:
For `CO[C@@H]1[C@@H]2OP(=O)(O)OC[C@H]2O[C@H]1n1c(Sc2ccc(Cl)cc2)nc2c(N)ncnc21`, “Km or Ki” read 895000 nM (PDE4D; cyclic nucleotide hydrolysis, substrate or inhibitor, isothermal titration calorimetry).
`C[C@]12CCC[C@@H]1[C@H]1CCc3cc(O)ccc3[C@@H]1CC2` (single isomer, unassigned) gave an EC50 of 1170 nM (HT-22; cell protection; together with: glutamate 20 mM).
